{"data": "Published values collected from several papers", "note": "Numbered parts are unrelated; each lists some results of a single study."}
{"data": "Set 1", "target": "Histone acetyltransferase KAT6A, winged helix 2, GST fusion (KAT6A, Homo sapiens, UniProt Q92794, residues 85-181)", "method": "protein binding microarray", "molecule type": "double-stranded DNA, one strand shown", "sample": "in vitro", "concentration": "not given", "notes": "8-mer, flanks averaged, mean of 2 arrays, mostly near background", "baseline": "not given", "direction": "higher = stronger binding", "Target sequence (chain)": "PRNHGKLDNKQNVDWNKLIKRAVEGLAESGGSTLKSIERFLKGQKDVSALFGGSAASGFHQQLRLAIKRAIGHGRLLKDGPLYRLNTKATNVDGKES"}
{"Strand": "ACGAAGCT", "E-score": -0.0542}
{"Strand": "TACGTCTA", "E-score": -0.202}
{"Strand": "CAATCGGC", "E-score": -0.0409}
{"Strand": "GGACAGAC", "E-score": 0.103}
{"Strand": "AACGCCCA", "E-score": 0.0835}
{"Strand": "TCCTGACA", "E-score": -0.00326}
{"Strand": "ATGGAGGC", "E-score": -0.0702}
{"Strand": "CGTGCTGA", "E-score": 0.0115}
{"Strand": "GCGCGGAC", "E-score": 0.152}
{"Strand": "CCTCTCCA", "E-score": -0.0225}
{"Strand": "ACCTAGAT", "E-score": -0.0772}
{"Strand": "TAACCACA", "E-score": -0.251}
{"Strand": "TAAGTGGA", "E-score": 0.0827}
{"Strand": "ACGGGGTG", "E-score": 0.0532}
{"Strand": "GTTATTGA", "E-score": 0.083}
{"Strand": "GATAAAAC", "E-score": 0.196}
{"Strand": "CACAATAA", "E-score": -0.186}
{"Strand": "GGGCTCCA", "E-score": -0.0498}
{"Strand": "GTCTTAGA", "E-score": -0.0963}
{"Strand": "GACCCGAA", "E-score": 0.0837}
{"Strand": "CACAGAAG", "E-score": 0.0409}
{"Strand": "ACGCCTTA", "E-score": -0.131}
{"Strand": "CCAGAAAG", "E-score": 0.0076}
{"Strand": "GAAACAAC", "E-score": 0.0533}
{"Strand": "CTTTTATC", "E-score": -0.00388}
{"data": "Set 2", "target": "Sal-like protein 4, full length isoform A (SALL4, Homo sapiens, UniProt Q9UJQ4, residues 1-1053)", "method": "universal PBM", "molecule type": "double-stranded DNA, one strand shown", "sample": "in vitro", "concentration": "600 nM", "notes": "8-mer, flanks averaged, mean of replicates", "direction": "higher = stronger binding", "sequence of UniProt Q9UJQ4 (whole entry, looked up)": "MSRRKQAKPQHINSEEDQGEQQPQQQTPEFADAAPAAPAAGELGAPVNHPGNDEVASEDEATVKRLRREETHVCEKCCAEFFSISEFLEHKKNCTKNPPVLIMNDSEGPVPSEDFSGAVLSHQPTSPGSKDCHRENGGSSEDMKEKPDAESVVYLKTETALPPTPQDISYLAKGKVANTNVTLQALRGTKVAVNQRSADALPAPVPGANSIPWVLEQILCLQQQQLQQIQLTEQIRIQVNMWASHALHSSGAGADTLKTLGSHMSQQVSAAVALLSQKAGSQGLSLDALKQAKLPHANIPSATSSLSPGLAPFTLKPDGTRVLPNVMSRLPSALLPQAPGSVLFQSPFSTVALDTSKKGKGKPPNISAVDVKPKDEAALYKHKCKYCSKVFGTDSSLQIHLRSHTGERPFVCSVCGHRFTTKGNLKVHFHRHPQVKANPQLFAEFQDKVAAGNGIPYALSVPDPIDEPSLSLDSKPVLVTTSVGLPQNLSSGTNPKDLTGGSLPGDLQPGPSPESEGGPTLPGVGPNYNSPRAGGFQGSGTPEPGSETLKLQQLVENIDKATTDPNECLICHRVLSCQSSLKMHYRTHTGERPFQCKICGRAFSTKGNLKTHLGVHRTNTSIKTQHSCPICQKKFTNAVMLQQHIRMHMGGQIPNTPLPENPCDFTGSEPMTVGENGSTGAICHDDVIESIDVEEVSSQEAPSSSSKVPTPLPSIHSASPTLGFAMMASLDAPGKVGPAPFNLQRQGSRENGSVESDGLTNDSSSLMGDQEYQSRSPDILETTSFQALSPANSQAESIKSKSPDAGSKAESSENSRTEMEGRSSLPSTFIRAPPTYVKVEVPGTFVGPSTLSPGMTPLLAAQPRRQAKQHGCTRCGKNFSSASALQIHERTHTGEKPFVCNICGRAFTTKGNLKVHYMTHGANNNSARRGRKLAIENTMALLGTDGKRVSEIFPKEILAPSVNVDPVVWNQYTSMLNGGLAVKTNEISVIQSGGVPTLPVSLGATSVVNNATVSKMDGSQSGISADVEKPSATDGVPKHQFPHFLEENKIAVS"}
{"Strand": "ATTTAACA", "E-score": 0.218}
{"Strand": "GCCCGTTA", "E-score": -0.18}
{"Strand": "GAACCTCA", "E-score": -0.0287}
{"Strand": "GCGCGCAA", "E-score": -0.107}
{"Strand": "AAAGTCTG", "E-score": 0.0915}
{"Strand": "ACGTTAAG", "E-score": -0.0325}
{"Strand": "AAGCGTAG", "E-score": -0.095}
{"Strand": "ACGTTACT", "E-score": 0.111}
{"Strand": "CAGCCCGG", "E-score": -0.29}
{"Strand": "ATCAATAG", "E-score": 0.301}
{"Strand": "ATTAACCA", "E-score": 0.152}
{"Strand": "GACAAACA", "E-score": -0.0762}
{"Strand": "AATTTCTA", "E-score": 0.304}
{"Strand": "CTACCAGC", "E-score": -0.171}
{"Strand": "GGTGATCA", "E-score": -0.0332}
{"Strand": "TATTAAAA", "E-score": 0.436}
{"Strand": "AATCCCTA", "E-score": -0.0588}
{"Strand": "AAGCACTC", "E-score": -0.109}
{"Strand": "CTCACAAC", "E-score": 0.0437}
{"Strand": "CAACGAAA", "E-score": 0.131}
{"Strand": "ACCACGTC", "E-score": -0.15}
{"Strand": "CCTAAACC", "E-score": -0.115}
{"data": "Set 3", "target": "RNA binding protein fox-1 homolog 2, RRM domain, GST-SBP tag (RBFOX2, Homo sapiens, UniProt O43251-10, residues 100-194)", "method": "RNA Bind-n-Seq", "molecule type": "RNA", "sample": "in vitro", "concentration": "365 nM", "notes": "natural RNA segment, single round, ends assumed", "baseline": "no-protein control", "direction": "higher = stronger binding", "all sequences stand within": "GGGAGUUCUACAGUCCGACGAUC … UGGAAUUCUCGGGUGCCAA"}
{"Strand": "CUCCUCCAUCAGAUGUCUGGGCCUCCUCCAUCAGAUGCCUGGGCCUCCUCCAUCAGAUGCCUGGGCCUCCUCCAUCAGAUGUCUGGGCCUCCUCCAUCAGAUGCCUGGGC", "RBNS enrichment (R)": 0.395}
{"Strand": "GAGUCUAUGCCCUAUUGGCCAUCCUUAGUUUUCUUACGCAAAUUUAUACUGUUCAAGCAGCUCCAACGUCCAGUCUCAACACAGCGCGCCUUCGGCCAGGCAGCGAUCCA", "RBNS enrichment (R)": 0.531}
{"Strand": "GGGGGAGCAGCUGAGGCUUGGGGCCUUGCUCCCUGGGACAUUCUCUCCAUCUUUUGGUGCAUUGGCCAUAUUACUGUGCCAAUAGUGUCUUAACUCAUGUCCCAUCUAUC", "RBNS enrichment (R)": 0.695}
{"Strand": "GAUACUCCCUUGUGUGUUCUGUCCUAUCCAGAUGGCCUGCUAGAUUGAAUUAUACUCACCAACACAUAGAACAGGCCCUUUAGAAGGCACUAGGUGUUUGGAGGUGAGCU", "RBNS enrichment (R)": 1.23}
{"Strand": "UUAAAAAUACAUAGUCAUCCAAGGUUUUCUAAAAAUUGAAAUCAUAUGUUGGGAAUGGUAAAAAGGUUUUCAAAUGGUUUAUUUUUCCUCUUUUAUAAAUAAGUUUUACA", "RBNS enrichment (R)": 0.909}
{"Strand": "GGACUUUCUUCCCACCCCUUGCAGGGAGGUGUGAGCAGGAGACCCCUAGGGUGCCACUGAAUAAGAGACAGUAGAGAGCCCUGUCCUCUGGGGAUACAGCACCUGCUUCA", "RBNS enrichment (R)": 0.439}
{"Strand": "AGUCUGCAUGUGCGUUGAUUCUGUAGAGCUGUUAGUGGCUUAGUUUUUAAACUCCUAUUGGGGAGUAGGUAUUAAUAACUUAUUCCUGUAAGUUGGUUUUCUUAUUUGUU", "RBNS enrichment (R)": 39.9}
{"Strand": "GCGGGCAGGUUUCUAGGCUGCUCUAAGCUUCUACCUUGAAGGCAGUUGGGUCUGAUAAUAGUACCUUCUUCCUGGGGUGGUUGUGAGGAUAUAACGAGGUAAUGCAUGUA", "RBNS enrichment (R)": 24.2}
{"data": "Set 4", "target": "Ras GTPase-activating protein-binding protein 1, C-terminal RGG region (G3BP1, Homo sapiens, UniProt Q13283)", "method": "RNA Bind-n-Seq", "molecule type": "RNA", "sample": "in vitro", "concentration": "1 µM", "notes": "whole 134-nt RNA, ends assumed", "together with": "150 mM KCl", "baseline": "input library", "direction": "higher = stronger binding", "all sequences stand within": "GGGAGUUCUACAGUCCGACGAUC … UGGAAUUCUCGGGUGUCAAGG", "sequence of UniProt Q13283 (whole entry, looked up)": "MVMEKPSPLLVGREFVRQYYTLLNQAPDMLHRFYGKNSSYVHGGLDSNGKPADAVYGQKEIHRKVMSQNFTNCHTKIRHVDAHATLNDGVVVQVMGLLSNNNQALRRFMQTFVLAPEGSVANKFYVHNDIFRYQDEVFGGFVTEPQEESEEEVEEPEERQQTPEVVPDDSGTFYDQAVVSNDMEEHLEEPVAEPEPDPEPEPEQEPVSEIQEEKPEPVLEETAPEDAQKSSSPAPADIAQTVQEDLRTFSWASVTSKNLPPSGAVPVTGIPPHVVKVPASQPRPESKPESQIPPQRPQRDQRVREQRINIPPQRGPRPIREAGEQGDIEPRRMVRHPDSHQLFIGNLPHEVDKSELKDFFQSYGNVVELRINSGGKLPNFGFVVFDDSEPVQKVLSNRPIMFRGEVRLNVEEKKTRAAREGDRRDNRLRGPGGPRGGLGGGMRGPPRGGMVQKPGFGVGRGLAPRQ"}
{"Strand": "AGUCCUGUGCUACACAUCGUAUGUACCGAAUCGGGAAAAAGGAAAAAGGGAAAAAGGAAAGUAUUAUGUUACGCCGUUCGGAUCUGCACU", "log2 enrichment": -1.9}
{"Strand": "UGGGAGGUGGAUUUUGUUUAUUUUUUUAGCUCAUUUCCAGGGGUGGGAAUUUUUUUUUAAUAUGUGUCAUGAAUAAAGUUGUUUUUGACA", "log2 enrichment": 3.27}
{"Strand": "AGUCCUGUGCUACACAUCGUAUGUACCGAAUCGGGUUUUUGGUUUUUGGGGUUUUUGGAAAGUAUUAUGUUACGCCGUUCGGAUCUGCAC", "log2 enrichment": -1.24}
{"Strand": "GCAGGAAGUAAAAACAAAUGGAAAUGCUUCGGAUAGUGGCAGGGGUGGGGGUUGCUAAGGAAAAGGUGGGAUGGGAGUGGGUAAAGAGUU", "log2 enrichment": 1.71}
{"Strand": "UCAAGUCCUGUGCUACACAUCGUAUGUACCGAAUCGGGGCCCGGCCCGGCCCGGGAAAGUAUUAUGUUACGCCGUUCGGAUCUGCACUUC", "log2 enrichment": -1.77}
{"Strand": "UCAAGUCCUGUGCUACACAUCGUAUGUACCGAAUCGGGUUUUUGGGUGGGAGGGAAAGUAUUAUGUUACGCCGUUCGGAUCUGCACUUCC", "log2 enrichment": 1.02}
{"Strand": "CUCAAGUCCUGUGCUACACAUCGUAUGUACCGAAUCGGGGAAGGGGAAGGAAGGAAAGUAUUAUGUUACGCCGUUCGGAUCUGCACUUCC", "log2 enrichment": -1.22}
{"Strand": "UAACUUUAGAGGAGGAUCUGAUGGAAAUGGCAGUGGACGUGGAUUUGGGGAUGGCUAUAAUGGGUAUGGAGGAGGACCUGGAGGUGGCAA", "log2 enrichment": -1.25}
{"Strand": "UCCUCAAGUCCUGUGCUACACAUCGUAUGUACCGAAUCGGUGGGUGGGUGGAAAGUAUUAUGUUACGCCGUUCGGAUCUGCACUUCCAGC", "log2 enrichment": 0.0911}
{"note": "Repeated from above (set 1):"}
{"Strand": "GGGCTCCA", "E-score": -0.0498}
{"Strand": "GTCTTAGA", "E-score": -0.0963}
{"Strand": "GACCCGAA", "E-score": 0.0837}
{"Strand": "CACAGAAG", "E-score": 0.0409}
{"Strand": "ACGCCTTA", "E-score": -0.131}
